Assay results of several laboratories.
Every numbered part comes from another study and shows a few of its results, in no order. Changes are numbered by the printed parent chain.

Sample 1 — target: CCNB1, cyclin fold, Cln2 fusion (human); method: yeast growth competition, sequencing; medium: yeast; notes: strong parent motif; relative to: not given; direction: higher = stronger binding; endpoint: normalised enrichment score
Parent: E2F1 docking peptide (human); PPVKRRLDLETDH; partner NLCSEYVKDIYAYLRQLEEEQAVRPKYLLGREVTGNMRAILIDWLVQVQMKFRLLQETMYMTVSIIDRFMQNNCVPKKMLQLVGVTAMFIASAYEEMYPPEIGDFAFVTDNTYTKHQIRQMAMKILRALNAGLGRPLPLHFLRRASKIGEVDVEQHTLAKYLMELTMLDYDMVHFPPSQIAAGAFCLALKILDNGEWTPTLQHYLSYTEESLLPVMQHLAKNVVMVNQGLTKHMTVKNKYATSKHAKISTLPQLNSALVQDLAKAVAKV
D8G: 0.816
K4Q: 1.56
D12W: 0.84
K4M: 2.48
P2W: 0.184
P1H: 1.4
D8F: 2.48
V3W: 0.553
H13G: 2.02
T11V: 1.17

Sample 2 — method: aptamer microarray, sandwich; molecule type: DNA with 2'F-ANA; medium: in vitro; concentration: 200 nM; with: Cy3 exosite-II aptamer, 400 nM; direction: higher = stronger binding; endpoint: mean fluorescence intensity; sequence: GGTTGGTGTGGTTGG
Target: Prothrombin, mature alpha-thrombin (F2, Homo sapiens, UniProt P00734)
Notes: whole 15-mer aptamer, many near background
2'F-ANA at 1 3 6 7 10 11 14: 56.6 a.u.
2'F-ANA at 4 5 9 10 11 14: 43.1 a.u.
2'F-ANA at 6 13 15: 366 a.u.
2'F-ANA at 2 5 10: 90.3 a.u.
2'F-ANA at 2 4 5 7 13 15: 54.5 a.u.
2'F-ANA at 4 5 6 8 9 10 14: 43.9 a.u.
2'F-ANA at 2 4 5 6 10 13 14: 45.2 a.u.
2'F-ANA at 1 3 4 5 6 8 11 12 15: 95.2 a.u.
2'F-ANA at 1 2 5 7 10 14: 64 a.u.
2'F-ANA at 1 3 4 6 9 12: 353 a.u.
2'F-ANA at 1 2 3 7 8 11 12 13 14 15: 106 a.u.
2'F-ANA at 2 4 8 9 10 11 12 14: 61.8 a.u.
2'F-ANA at 1 3 4 5 6 9 13 14: 45.9 a.u.
2'F-ANA at 1 5 6 9 14: 45.2 a.u.
2'F-ANA at 1 4 7 10 13 14: 136 a.u.
2'F-ANA at 2 3 4 5 9 15: 84.9 a.u.
2'F-ANA at 5 8 14 15: 48.4 a.u.
2'F-ANA at 4 5 9 12 13: 84.2 a.u.
2'F-ANA at 1 5 7 9 12 13 14: 47.1 a.u.
2'F-ANA at 1 3 4 6 7 8 9 10 11 13 14: 52.6 a.u.
2'F-ANA at 1 2 3 5 6 8 12 13 15: 141 a.u.

Sample 3 — target: UBE2B UBC core domain (UniProt P63146); method: yeast two-hybrid; medium: yeast; notes: mostly zero background; relative to: not given; direction: higher = stronger interaction; endpoint: lacZ reporter activity
UniProt P63146, sequence (whole entry, looked up): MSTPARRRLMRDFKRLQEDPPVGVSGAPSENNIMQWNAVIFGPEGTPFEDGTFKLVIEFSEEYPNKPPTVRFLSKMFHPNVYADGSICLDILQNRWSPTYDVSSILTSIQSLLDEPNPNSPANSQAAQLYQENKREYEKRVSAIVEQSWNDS
B1: MDM4 RING domain (UniProt O15151); chain MEDCQNLLKPCSLCEKRPRDGNIIHGRTGHLVTCFHCARRLKKAGASCPICKKEIQLVIKVF
B2: DTX2 RING domain (UniProt Q86UW9); chain EELKVPPDEDCIICMEKLSTASGYSDVTDSKAIGSLAVGHLTKCSHAFHLLCLLAMYCNGNKDGSLQCPSCKTIYGEKTGTQ
B3: SH3RF1 RING domain (UniProt Q7Z6J0); chain DESALLDLLECPVCLERLDASAKVLPCQHTFCKRCLLGIVGSRNELRCPECRTLVGSGVEEL
B4: RNF121 RING domain (UniProt Q9H920); chain MPTKHLSDSVCAVCGQQIFVDVSEEGIIENTYRLSCNHVFHEFCIRGWCIVGKKQTCPYCKEKVDLKRMFS
B5: SYTL4 RING domain (UniProt Q96C24); chain RGSQHYSDRTCARCQESLGRLSPKTNTCRGCNHLVCRDCRIQESNGTWRCKVCAKEIELKKAT
B6: RNF133 RING domain (UniProt Q8WVZ7); chain DEEINPNGDSCVICFERYKPNDIVRILTCKHFFHKNCIDPWILPHGTCPICKCDILKVLGIQ
B7: DZIP3 RING domain (UniProt Q86Y13); chain PDEEEEEEEPCVICHENLSPENLSVLPCAHKFHAQCIRPWLMQQGTCPTCRLHVLLPEEFP
B8: RBCK1 RING domain (UniProt Q9BYM8); chain SLVLNTEPAECPVCYSVLAPGEAVVLRECLHTFCRECLQGTIRNSQEAEVSCPFIDNTYSCSGKLLEREIK
B1 (MDM4 RING domain): 0
B2 (DTX2 RING domain): 0
B3 (SH3RF1 RING domain): 0
B4 (RNF121 RING domain): 0
B5 (SYTL4 RING domain): 0
AVPSGLEENLCKICMDSPIDCVLLECGHMVTCTKCGKRMNECPICRQYVIRAVHVF (RFFL RING domain (UniProt Q8WZ73)): 0
B6 (RNF133 RING domain): 0
B7 (DZIP3 RING domain): 0
FDGDVDPDLKCALCHKVLEDPLTTPCGHVFCAGCVLPWVVQEGSCPARCRGRLSAKELN (PDZRN3 RING domain (UniProt Q9UPQ7)): 0
GSDDEEIPFKCFICRQSFQNPVVTKCRHYFCESCALQHFRTTPRCYVCDQQTNGVFNPA (RNF113A RING domain (UniProt O15541)): 0
B8 (RBCK1 RING domain): 0

Sample 4 — method: RNA Bind-n-Seq; molecule type: RNA; medium: in vitro; concentration: 365 nM; relative to: no-protein control; direction: higher = stronger binding; endpoint: RBNS enrichment (R)
Target: RNA binding protein fox-1 homolog 2, RRM domain, GST-SBP tag (RBFOX2, Homo sapiens, UniProt O43251-10, residues 100-194)
Notes: natural RNA segment, single round, ends assumed
Constant ends, left off below: GGGAGUUCUACAGUCCGACGAUC … UGGAAUUCUCGGGUGCCAA
Residues (chain): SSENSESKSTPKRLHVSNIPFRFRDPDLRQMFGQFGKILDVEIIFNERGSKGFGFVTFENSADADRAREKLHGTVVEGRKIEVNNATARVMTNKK
GGUUAUAUGUAUGCACCACAUGUGCACACACGGGUGUUGGUGCAACUCACCAGCAGGUGUGCAGUAGGCAAGCUUGAAGGUGGCCCAUGCUUCUCUGUUGUCACACAACA: 0.434
CUAAUCAUGGAUUUUUUGAACAUGUUAUUGCAGUGAUUCUCAAAUUAACUGUAUUGGUGUAAGAGUUUUGUCAUUAAGUGUUUAAGUGUUAUUCUGAAUUUUCUACCUUA: 0.458
ACACUCCGUGUGACUGUAACAUUUCUUCAAGGAAAGUAUAGCGUCUAUGGAGUGCAGAGGGCAUGUGUUUGGGGAAAAAUAUACAUGACAUAAAGAUGACGACGAAGAAG: 1.82
CCAUGUAUUCCCCACCUGUGUUCCGUUUGACCAGCACAGAAAUAUUAAACGUCCUCUAUUCACCGGGCCCUGUGUGUGUCACCGAGGUGCGGGAGGGGAGGAGCAUUAAA: 0.424
UUGGGAAUAAGCCAAAAACAGGGUGAUCUCAUUAGAUUUUGAAGAUAUAUGACUCCUUUGGGCUACAUUUCAUAUUGAUCAAUUUCUAGGUAUUUUUCACUGGCCCAAAG: 0.498
GCCACAUUUUCUUAAUCCAGUCUAUCAUUGUUGGACAUUUGGGUUGGUUCCAAGUCUUUGCUAUUGUGAAUAAUGCCGCAAUAAACAUACGUGUGCAUGUGUCUUUAUAG: 0.706
AAUUUAUUGAAUUUUAUUAUUGAAAGUUGAAACUUAACAUGUAUGAACAAAAACCAAUAAAAGAAUAUACUCUUUUCAUUGACUAUAGUAUUAUGUGAAUGCUACAUUUG: 0.435
GCUAAAAAUCCUGUGAAUACAAUACUAUCCUUUACAGGCAGACAUUAUUGGUAAACAAGAUCUUGCCCUCCAAUGAAAUGACUUACAUGUUUUAAAAAACCGAGUUGGUU: 0.553
AAGAGCCUUUUCAAAUACAGAUCCAGAAGUCUGAUUUGUGCCAACCUUAGGAUGACCUAAGGGGAGGACCCCGUACCCCAUCACCGGAGAGCCUGCAUUUCCCUGCUAUU: 0.458
AAUGCUAAGUCUGGCAUGGUAGUCAACACCUAUAAUCUCUGCACUCAGAGGCUGAGGAAGAAAGAUCACUGAGUCACGGCCAGCCUGGGCUACAUAGCCCCGCCCUGUCU: 0.306
AUCAAAUGAGACUAUUUGAGGGGACUAUUUGAAAUGAUUCUGGUAUUUCUUUUGGUAUCUUUCUUCCUGUACAUUGGAGUGAUGGAAAGUCUGGUAUUAAAACCUCUCUU: 0.331
GCUUCCUGCCCCUUGAGGUGGGCCAGGCUGGCUCCUGGCUAUGCAGGGAUCUCUGGUCCCCAGGAGACCUUGGGGGCCAGGCAGGUAAGGAUCAGGGGUGAUAGGGGAGA: 0.404

Sample 5 — method: DHFR PCA, deep sequencing; medium: yeast; with: (+)-ABA 200 µM; relative to: wild-type fitted maximum; direction: higher = stronger binding; endpoint: relative binding score
Target: ABI1, truncated, D143A, DHFR fusion (Arabidopsis thaliana)
Notes: methotrexate growth selection, single substitutions
Parent: PYL1, truncated, DHFR fusion (Arabidopsis thaliana); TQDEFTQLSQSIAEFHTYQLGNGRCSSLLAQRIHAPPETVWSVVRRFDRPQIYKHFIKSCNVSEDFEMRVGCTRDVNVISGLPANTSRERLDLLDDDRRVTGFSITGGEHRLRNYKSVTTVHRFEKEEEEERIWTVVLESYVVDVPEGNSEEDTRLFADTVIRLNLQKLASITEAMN
A158G: 67.1%
R88Y: 99.6%
Q51D: 89.8%
L29V: 101%
D153A: 49.1%
E152I: 90.7%
N22M: 97.8%
T106H: 83.6%
H110R: -1.89%
D97M: 100%

Excerpt of the above (sample 4):
ACACUCCGUGUGACUGUAACAUUUCUUCAAGGAAAGUAUAGCGUCUAUGGAGUGCAGAGGGCAUGUGUUUGGGGAAAAAUAUACAUGACAUAAAGAUGACGACGAAGAAG: 1.82
UUGGGAAUAAGCCAAAAACAGGGUGAUCUCAUUAGAUUUUGAAGAUAUAUGACUCCUUUGGGCUACAUUUCAUAUUGAUCAAUUUCUAGGUAUUUUUCACUGGCCCAAAG: 0.498
GCUUCCUGCCCCUUGAGGUGGGCCAGGCUGGCUCCUGGCUAUGCAGGGAUCUCUGGUCCCCAGGAGACCUUGGGGGCCAGGCAGGUAAGGAUCAGGGGUGAUAGGGGAGA: 0.404
GCCACAUUUUCUUAAUCCAGUCUAUCAUUGUUGGACAUUUGGGUUGGUUCCAAGUCUUUGCUAUUGUGAAUAAUGCCGCAAUAAACAUACGUGUGCAUGUGUCUUUAUAG: 0.706
